{"data": "Results pooled from the literature", "note": "Numbered parts are unrelated; each lists some results of a single study. Changes are numbered by the printed parent chain."}
{"data": "Series 1", "target": "ATF3, bZIP domain (human)", "method": "DHFR protein complementation", "sample": "yeast", "notes": "single substitutions, most at no-binding floor", "baseline": "wild-type JUN-FOS pair", "direction": "higher = stronger binding", "parent": "JUN, bZIP domain (human); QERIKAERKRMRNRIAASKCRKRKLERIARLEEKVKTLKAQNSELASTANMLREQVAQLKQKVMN; partner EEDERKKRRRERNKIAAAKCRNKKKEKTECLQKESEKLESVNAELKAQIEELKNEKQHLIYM"}
{"Variant": "A46F", "binding fitness [natural log]": -0.258}
{"Variant": "E54M", "binding fitness [natural log]": -0.172}
{"Variant": "A49K", "binding fitness [natural log]": -0.266}
{"Variant": "Q41N", "binding fitness [natural log]": -0.365}
{"Variant": "E44V", "binding fitness [natural log]": -0.124}
{"Variant": "A57P", "binding fitness [natural log]": -1.37}
{"Variant": "S43H", "binding fitness [natural log]": -0.0478}
{"Variant": "I28R", "binding fitness [natural log]": -0.0744}
{"Variant": "L45K", "binding fitness [natural log]": -1.39}
{"Variant": "N42G", "binding fitness [natural log]": -0.431}
{"Variant": "I28M", "binding fitness [natural log]": -0.0487}
{"Variant": "S47E", "binding fitness [natural log]": 0.0473}
{"Variant": "T48K", "binding fitness [natural log]": -0.146}
{"Variant": "I28K", "binding fitness [natural log]": -0.185}
{"Variant": "E33F", "binding fitness [natural log]": -0.296}
{"Variant": "V56E", "binding fitness [natural log]": -1.49}
{"Variant": "N42R", "binding fitness [natural log]": -0.373}
{"Variant": "K39P", "binding fitness [natural log]": -1.27}
{"Variant": "T48F", "binding fitness [natural log]": -0.207}
{"Variant": "Q55T", "binding fitness [natural log]": -0.343}
{"Variant": "T37S", "binding fitness [natural log]": -0.118}
{"Variant": "E32P", "binding fitness [natural log]": -0.895}
{"Variant": "E54Q", "binding fitness [natural log]": -0.386}
{"Variant": "E54H", "binding fitness [natural log]": -0.222}
{"Variant": "L52G", "binding fitness [natural log]": -1.29}
{"data": "Series 2", "target": "CCNB2, cyclin fold, Cln2 fusion (human)", "method": "yeast growth competition, sequencing", "sample": "yeast", "notes": "weak parent motif", "baseline": "not given", "direction": "higher = stronger binding", "parent": "CDC25A docking peptide (human); PPHRRRLLFACSP"}
{"Variant": "PPHRRRLLFACSY [P13Y]", "normalised enrichment score": 0.685}
{"Variant": "PPHRRRLLFACHP [S12H]", "normalised enrichment score": 0.677}
{"Variant": "PPHRRRLLIACSP [F9I]", "normalised enrichment score": 0.545}
{"Variant": "PPHRRRALFACSP [L7A]", "normalised enrichment score": 0.746}
{"Variant": "PPHRRRCLFACSP [L7C]", "normalised enrichment score": 0.654}
{"Variant": "PPHRRGLLFACSP [R6G]", "normalised enrichment score": 0.259}
{"Variant": "PPHRRPLLFACSP [R6P]", "normalised enrichment score": -0.345}
{"Variant": "PPHRRRLTFACSP [L8T]", "normalised enrichment score": 0.648}
{"Variant": "PPHRFRLLFACSP [R5F]", "normalised enrichment score": 0.273}
{"Variant": "PPHRRRLLFAQSP [C11Q]", "normalised enrichment score": 0.787}
{"Variant": "PPHRRRLLFACSN [P13N]", "normalised enrichment score": 0.939}
{"Variant": "GPHRRRLLFACSP [P1G]", "normalised enrichment score": 0.297}
{"Variant": "PPHRMRLLFACSP [R5M]", "normalised enrichment score": 0.378}
{"Variant": "PPHRRRLLFAASP [C11A]", "normalised enrichment score": 0.731}
{"Variant": "PPHRRRLLFACSG [P13G]", "normalised enrichment score": 0.776}
{"Variant": "PPHRRRNLFACSP [L7N]", "normalised enrichment score": 0.95}
{"Variant": "PPHRWRLLFACSP [R5W]", "normalised enrichment score": 0.709}
{"Variant": "PPHRRRLLYACSP [F9Y]", "normalised enrichment score": 0.81}
{"Variant": "PPHRRRLLFACSF [P13F]", "normalised enrichment score": 0.793}
{"Variant": "PPCRRRLLFACSP [H3C]", "normalised enrichment score": 0.858}
{"data": "Series 3", "target": "RING finger protein unkempt homolog, zinc fingers 1-6, GST-SBP tag (UNK, Homo sapiens, UniProt Q9C0B0, residues 30-357)", "method": "RNA Bind-n-Seq", "form": "RNA", "sample": "in vitro", "concentration": "not given", "notes": "RNA with constant flanks, ends assumed", "baseline": "input RNA pool", "direction": "higher = stronger binding", "constant ends, left off below": "GGGAGUUCUACAGUCCGACGAUC … CAACAGAGGAUUGAGCAUCA", "Construct (chain)": "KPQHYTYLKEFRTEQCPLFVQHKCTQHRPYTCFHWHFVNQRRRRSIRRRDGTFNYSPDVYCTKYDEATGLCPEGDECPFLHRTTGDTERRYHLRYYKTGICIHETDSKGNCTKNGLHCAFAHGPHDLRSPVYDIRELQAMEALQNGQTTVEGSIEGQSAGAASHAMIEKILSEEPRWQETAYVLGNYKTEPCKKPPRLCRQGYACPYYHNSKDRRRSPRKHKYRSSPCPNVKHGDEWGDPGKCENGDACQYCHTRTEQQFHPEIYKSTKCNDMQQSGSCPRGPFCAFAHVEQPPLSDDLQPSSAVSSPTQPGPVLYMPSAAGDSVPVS"}
{"Oligonucleotide": "UGGAGUGGAGGCUGAGCCCUCUUUCCUUGGCUUCCAUUUAAAAUGAACUUCACAACAUUCCCGCUAUUGAGGGAUGACAAAAGGAACCCAGAAAAGUGUGUAGGAAAUUACAAGCAGGUU", "bound/input enrichment [ratio]": 0.344}
{"Oligonucleotide": "AAAACAGAAAAUGGUGCUGGAGACCAGUAGUUUAGUAAACCAAUUUUUUAUUCAUUUUAAACCGGUUUUAAACGACUUUUGUUUGCGGGGCUUUUAAAAGGAAAACCGAAUUAGGUCCAC", "bound/input enrichment [ratio]": 5.66}
{"Oligonucleotide": "ACAUCAUGUAUGUAUGUGCAAAUGUUGUCUUUUUGAGGGAAUUUAGUAUUUAAAUUGCUUCACCGUCUAAGUUAUUAAAUUUUGUAUGAAAUAACUCUUGAAAACAUUCACUUUUCAGUA", "bound/input enrichment [ratio]": 0.427}
{"Oligonucleotide": "UUUUUUUUUCCCGGGGUGGGGGGUGUUCUUUGGGGGAAUUUUUUUUUUAAUGGAAGCUUCCCGCAAGCCCUAUGCCCCACCCCAAUCAACCUCUUUGCUUUCUUCUUUAAAAAAAGGAAA", "bound/input enrichment [ratio]": 0.0728}
{"Oligonucleotide": "GGAAUUUACAUGGUCUAUUGCCGAAAACACAAGAAAACUGCACAUAACUCCGAAGCUGAUUCCGAAGAAAGUUUUAAUGAACAUGAACUGGAGCCCUCAUCACCUAAAAGUAAAAAGAAA", "bound/input enrichment [ratio]": 0.234}
{"Oligonucleotide": "GGUUUCCCCAAAGUCAGUAUUCUCCUCAGGGAUGCCAUUGAAAAGUUAUUUCCUGAUGCCAUCCGACUGAGAUUUGAAGACAUUCAGCAGAAUAAUGACAUAGUCCAAAGUCUUGCAGCC", "bound/input enrichment [ratio]": 0.662}
{"Oligonucleotide": "CUGAAAGCUGCCAUUUCAGAACGUGAAGAGGUUAGAGGGAGAAGUGAACUGUUUCAUCCUGUCCGUGCCGACUGUAAGCUAAGGCAAAAAGCAACCACAAGAGCUGACACCGAUGUAGAC", "bound/input enrichment [ratio]": 0.138}
{"Oligonucleotide": "CAUUUAGCGUCUUUUGGGAAAGCCAAACAGUUCAUGAAUUUUCUGGUUGGACUUUUAAAAUCCGGUGAGUUGAUAAACUUCUUGAUUUUCCUACAAAAGGGAAAGUUUGCAACUUUGACA", "bound/input enrichment [ratio]": 0.234}
{"data": "Series 4", "target": "ABI1, truncated, D143A, DHFR fusion (Arabidopsis thaliana)", "method": "DHFR PCA, deep sequencing", "sample": "yeast", "notes": "methotrexate growth selection, single substitutions", "together with": "(+)-ABA 0.11 µM", "baseline": "wild-type fitted maximum", "direction": "higher = stronger binding", "parent": "PYL1, truncated, DHFR fusion (Arabidopsis thaliana); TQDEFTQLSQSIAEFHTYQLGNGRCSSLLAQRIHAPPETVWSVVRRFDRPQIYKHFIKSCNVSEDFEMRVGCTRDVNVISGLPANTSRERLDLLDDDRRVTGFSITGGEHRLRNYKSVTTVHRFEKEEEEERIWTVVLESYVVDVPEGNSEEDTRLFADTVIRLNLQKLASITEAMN"}
{"Variant": "S80F", "relative binding score [%]": 60}
{"Variant": "P83S", "relative binding score [%]": 24.6}
{"Variant": "E130D", "relative binding score [%]": 49.6}
{"Variant": "T160V", "relative binding score [%]": -0.00771}
{"Variant": "Q167E", "relative binding score [%]": 40.7}
{"Variant": "F157S", "relative binding score [%]": 6.03}
{"Variant": "E128S", "relative binding score [%]": 37.7}
{"Variant": "F47W", "relative binding score [%]": -2.37}
{"Variant": "V145M", "relative binding score [%]": -10.6}
{"Variant": "S27W", "relative binding score [%]": 2.62}
{"Variant": "L20Q", "relative binding score [%]": 42.5}
{"Variant": "F124L", "relative binding score [%]": 46.4}
{"Variant": "I57R", "relative binding score [%]": -0.423}
{"Variant": "D75F", "relative binding score [%]": 27.6}
{"Variant": "S26P", "relative binding score [%]": -1.19}
{"Variant": "V143A", "relative binding score [%]": 7.04}
{"Variant": "G148T", "relative binding score [%]": 1.9}
{"Variant": "F66M", "relative binding score [%]": 11}
{"note": "Some of these lines once more (series 2):"}
{"Variant": "PPHRRGLLFACSP [R6G]", "normalised enrichment score": 0.259}
{"Variant": "PPHRRPLLFACSP [R6P]", "normalised enrichment score": -0.345}
{"Variant": "PPHRRRLTFACSP [L8T]", "normalised enrichment score": 0.648}
{"Variant": "PPHRFRLLFACSP [R5F]", "normalised enrichment score": 0.273}
{"Variant": "PPHRRRLLFAQSP [C11Q]", "normalised enrichment score": 0.787}
{"Variant": "PPHRRRLLFACSN [P13N]", "normalised enrichment score": 0.939}
{"Variant": "GPHRRRLLFACSP [P1G]", "normalised enrichment score": 0.297}
{"Variant": "PPHRMRLLFACSP [R5M]", "normalised enrichment score": 0.378}
{"Variant": "PPHRRRLLFAASP [C11A]", "normalised enrichment score": 0.731}
{"Variant": "PPHRRRLLFACSG [P13G]", "normalised enrichment score": 0.776}
{"Variant": "PPHRRRNLFACSP [L7N]", "normalised enrichment score": 0.95}
{"Variant": "PPHRWRLLFACSP [R5W]", "normalised enrichment score": 0.709}
